Experimental data pooled from the literature.
Each line is one published result; not all experiments were run side by side. Several values in a cell are separate wells, animals, samples, runs or records. Numbers after ± are the reported error.

Structure (SMILES) = C[C@H]1CNC(=O)c2cnn3ccc(nc23)N[C@H](C)c2cc(F)ccc2O1; test system = human, plasma; conditions = 160 mg twice daily, steady state, recommended dose; endpoint = Cavg,u; value = 39 nM
Structure (SMILES) = O=C1NC(=O)C(Cc2ccc(O)cc2)S1 (stereo not shown); assay = haemolysis; test system = sheep erythrocytes; conditions = 1 h, pH 7.5; endpoint = HC50; value = > 128 µg/mL
Structure (SMILES) = FC(F)(F)c1ccc(CNc2ccc(Cc3c[nH]c4ncc(Cl)cc34)cn2)cn1; test system = patients with advanced solid tumours; conditions = oral, 1000 mg/day, all patients, all grades; endpoint = dry mouth incidence; value = 7%
Structure (SMILES) = CN1C[C@H](COc2nccc3c(NCc4ccco4)cc(Cl)nc23)OC1=O; test system = rabbit, isolated Langendorff heart; conditions = dose not given; endpoint = effect on QRS; value = negative
Structure (SMILES) = C=CC(=O)Nc1cc(Nc2ncc(C(=O)OC(C)C)c(-c3cn(C)c4ccccc34)n2)c(OC)cc1N(C)CCN(C)C; assay = two-compartment PK model; test system = mouse; conditions = dose not given; endpoint = peripheral volume of distribution; value = 286 L
Structure (SMILES) = COCCOc1cnc2ccn([C@H](C)c3nnc4c(F)cc(-c5cnn(C)c5)cn34)c(=O)c2c1; test system = patients, plasma; conditions = oral, 50 mg once daily, day 28 24 h postdose; endpoint = Ctrough; value = 50 ng/mL
Structure (SMILES) = COc1ccc(-c2csc(CNS(=O)(=O)c3cnn(C)c3C(=O)O)n2)cc1; assay = colloidal aggregate formation, dynamic light scattering; test system = 50 mM potassium phosphate buffer; conditions = 200 µM, pH 7.0, 1% DMSO; how to read = higher = more aggregation; endpoint = DLS scattered light intensity; value = 411000 counts/s
Structure (SMILES) = N#Cc1ccc2c(c1)[C@H]1CCCN(C(=O)c3ccc4[nH]cnc4c3)[C@H]1C2; test system = human; conditions = 10 mg, day 15; endpoint = mean ACTH level; value = 6.9 pmol/L
Structure (SMILES) = Cc1ccc(C(=O)N(CCCN)C(c2nc3snc(C)c3c(=O)n2Cc2ccccc2)C(C)C)cc1 (stereo not shown); assay = stomatitis grade ≥3 (CTCAE); test system = human patients; conditions = intravenous, 2 mg/day; endpoint = patients with adverse event; value = 0%
Structure (SMILES) = Cl.[2H]C([2H])([2H])CC(=O)c1cnc(NC(=O)C2CC2)cc1Nc1cccc(-c2ncn(C([2H])([2H])[2H])n2)c1OC; test system = human, fasted, multiple dose; conditions = oral, 20 mg once daily, tablet, day 14, geometric mean; endpoint = Ctrough; value = 15.1 ng/mL
Structure (SMILES) = Cc1cc(-c2nnc(N)nc2-c2ccc(F)cc2)cc(Cl)n1; assay = item: hypothyroidism; test system = IO-naive other solid tumour patients; conditions = oral, 100 mg once daily, treatment-related, grade 1; endpoint = patients with immune-mediated AE; value = 0%
Structure (SMILES) = Cc1ccc(Sc2ccccc2N2CCNCC2)c(C)c1; test system = healthy adult men; conditions = oral, 10 mg single dose, treatment-emergent adverse events; endpoint = pyrexia incidence; value = 0%
Structure (SMILES) = CC(C)[C@H](N)C(=O)NCCCS(=O)(=O)O; test system = human both sexes, plasma; conditions = oral, 171 mg once daily, day 1, fasted capsule; endpoint = AUC(0-12); value = 6260 ng·h/mL
Structure (SMILES) = N#C[C@@]1(c2ccc3c(N)ncnn23)O[C@H](CO)[C@@H](O)[C@H]1O; test system = dog, plasma; conditions = oral, 5 mg/kg, solution, recalculated NCATS data; endpoint = half-life; value = 3.96 h
Structure (SMILES) = Nc1ccn([C@@H]2O[C@H](CO)[C@@H](O)C2(F)F)c(=O)n1; assay = item: dFdU; test system = human, plasma; conditions = intravenous, 800 mg/m^2, with: after paricalcitol; endpoint = Tmax, mean; value = 1.06 h
Structure (SMILES) = Fc1ccc([C@@H]2CCNC[C@H]2COc2ccc3c(c2)OCO3)cc1; test system = human, CYP2D6 poor metabolizers, plasma; conditions = oral, 20 mg, steady state; endpoint = peak-trough fluctuation; value = 39%
Structure (SMILES) = O=C(c1nc2n(n1)[C@H](c1ccccc1)C[C@@H]2F)C1CC1; test system = human, fasted; conditions = oral, 75 mg single dose, mean; endpoint = fraction excreted fe(0-72 h); value = 0.18%
Structure (SMILES) = CCN1CCN(C(=O)N[C@@H](C(=O)N[C@@H]2C(=O)N3[C@@H]2SC(C)(C)[C@@H]3C(=O)O)c2ccccc2)C(=O)C1=O; test system = human whole blood; conditions = concentration not given, 8 h, 4 °C; endpoint = deviation from nominal concentration; value = 1.2%
Structure (SMILES) = CCCCNC(=O)NS(=O)(=O)c1cccs1; assay = haemolysis; test system = sheep erythrocytes; conditions = 1 h, pH 7.5; endpoint = HC50; value = > 128 µg/mL
Structure (SMILES) = COc1cccc(-c2n[nH]c(SCc3ccccn3)n2)c1OC; test system = Sprague-Dawley rats, male; conditions = diet, 100 mg/kg/day, day 14, 90-day subchronic study; endpoint = haemoglobin; value = 15.6 g/dL
Structure (SMILES) = NC1(C(=O)N[C@@H](CCO)c2ccc(Cl)cc2)CCN(c2nc[nH]c3nccc2-3)CC1; test system = metastatic CRPC patients; conditions = 320 mg b.i.d., grade 3 to 4, treatment-related, with: enzalutamide 160 mg daily; endpoint = incidence of Fatigue; value = 0%
Structure (SMILES) = Cc1nc(-c2ccc(OCC(C)C)c(C#N)c2)sc1C(=O)O; test system = KM mouse, chronic hyperuricaemia model; conditions = dose not given, day 1; endpoint = body weight; value = 25.3 g and 24.9 g and 24.3 g and 25.8 g and 26.7 g and 24.6 g
Structure (SMILES) = Cc1ccc(O)c(-n2nc3ccccc3n2)c1; assay = exposure assessment; test system = human, age 16-21 years; conditions = concentration not given, cream, 95th percentile; endpoint = daily dermal uptake, percentile; value = 1940 ng/kg body weight/day
Structure (SMILES) = CCCC1CCC(c2ccc(OCC)c(F)c2F)CC1 (stereo not shown); assay = item: compound; test system = human pregnant women, male fetuses, maternal serum; conditions = dose not given, paired maternal-cord samples, mean; endpoint = concentration; value = 0.72 ng/mL
Structure (SMILES) = Cn1c(C(F)(F)F)cc(=O)n(-c2cc(Oc3cccnc3OCC(=O)O)c(Cl)cc2F)c1=O; test system = Crl:CD(SD) rats, female, plasma; conditions = oral diet, 800 ppm in diet, day 1, 90-day toxicity study; endpoint = AUC(0-24 h); value = 19000 ng·h/mL
Structure (SMILES) = CC1(C)CC[C@]2(NC(=O)C(C)(F)F)CC[C@]3(C)[C@H](C(=O)C=C4[C@@]5(C)C=C(C#N)C(=O)C(C)(C)[C@@H]5CC[C@]43C)[C@@H]2C1; test system = human, plasma; conditions = oral, dose not given, with: efavirenz; how to read = baseline: without efavirenz; endpoint = AUC(0-tlast) decrease; value = 48%
Structure (SMILES) = CCO[C@H]1CCN(Cc2c(OC)cc(C)c3[nH]ccc23)[C@H](c2ccc(C(=O)O)cc2)C1; test system = PNH patients, active haemolysis; conditions = oral, 200 mg, 8 weeks, treatment; endpoint = incidence of abdominal distension; value = 0%
Structure (SMILES) = CNCCOC12CC3(C)CC(C)(CC(Cn4ncc(-c5ccc(N6CCc7cccc(C(=O)Nc8nc9ccccc9s8)c7C6)nc5C(=O)O)c4C)(C3)C1)C2; test system = beagle dog, male, anaesthetised; conditions = intravenous bolus, 0.03 mg/kg, 30 min; how to read = baseline: baseline; endpoint = PR interval change; value = -6 ms
Structure (SMILES) = Cc1nc2cc(Cl)c(NS(=O)(=O)c3cccc(Cl)c3O)cc2s1; assay = colloidal aggregate formation, dynamic light scattering; test system = 50 mM potassium phosphate buffer; conditions = 200 µM, pH 7.0, 1% DMSO; how to read = higher = more aggregation; endpoint = DLS scattered light intensity; value = 769000 counts/s
Structure (SMILES) = O=C(O)CCCCCCCCC(=O)O; test system = human, plasma; conditions = endogenous baseline diurnal; endpoint = daily mean concentration; value = 41.5 ± 4.6 nM
Structure (SMILES) = O=C(O)CCC(=O)O.[2H]C([2H])([2H])Oc1cc(C)c2[nH]ccc2c1CN1CC[C@@H](C2CC2)C[C@H]1c1ccc(C(=O)O)cc1; assay = LC-MS/MS, median; test system = human, plasma; conditions = 400 mg, single dose, fasting; endpoint = Tmax; value = 4 h
Structure (SMILES) = COc1c(N2C[C@@H]3CCCN[C@@H]3C2)c(F)cc2c(=O)c(C(=O)O)cn(C3CC3)c12; test system = male Hartley guinea pig, anaesthetized; conditions = intravenous infusion, 10 mg/kg, 10 min infusion, post-infusion; endpoint = QTc interval; value = 358 ± 1.3 ms
Structure (SMILES) = O=c1[nH]c(=O)n([C@@H]2O[C@H](CO)[C@@H](O)[C@@H]2F)cc1CCCCC[18F]; test system = tumour-bearing nude mice, blood; conditions = dose not given, 2 min; endpoint = blood activity; value = 4.18 ± 0.17 %ID/g
Structure (SMILES) = C[C@@H](Oc1ccc(S(C)(=O)=O)cc1C(=O)N1C[C@@H]2C[C@]2(c2cc(C(F)(F)F)on2)C1)C(F)(F)F; test system = human; conditions = oral, 25 mg; endpoint = subjects with infections and infestations; value = 16.7%
Structure (SMILES) = CNC(=O)c1ccc(-c2cnc3ncc(Cc4ccc5ncccc5c4)n3n2)cc1F; test system = human mild hepatic impairment NCI; conditions = oral, 200 mg single dose, mean; endpoint = AUC(0-inf); value = 7240 ng·h/mL
Structure (SMILES) = COc1ccc2c(c1)CN(C(=O)CCN1CCC(Cc3ccccc3)CC1)CC[S@@+]2[O-]; assay = telemetry; test system = conscious male beagle dogs; conditions = intravenous, NG, 4 h; endpoint = PQ interval; value = 93 ± 11 ms
Structure (SMILES) = Cc1cc(-c2nccc3c2ccn3CC(=O)Nc2ccc(-c3cnccn3)cn2)ccn1; test system = human; conditions = 20 mg once daily, multiple ascending dose; endpoint = subjects with limb injury; value = 11.1%
Structure (SMILES) = O=C(CCCN1CC=C(n2c(=O)[nH]c3ccccc32)CC1)c1ccc(F)cc1; test system = male Hartley guinea pig, anaesthetized; conditions = intravenous infusion, 0.03 mg/kg, 10 min infusion, post-infusion; endpoint = QTc interval; value = 315 ± 0.6 ms
Structure (SMILES) = CC(CC(C)(C)c1ccccc1)NS(=O)(=O)c1cccc(Cl)c1O (stereo not shown); assay = colloidal aggregate formation, dynamic light scattering; test system = 50 mM potassium phosphate buffer; conditions = 200 µM, pH 7.0, 1% DMSO; how to read = higher = more aggregation; endpoint = DLS scattered light intensity; value = 831000 counts/s
Structure (SMILES) = CCN1CCN(Cc2ccc(NC(=O)c3ccc(C)c(NC(=O)c4cncc(-c5cccs5)c4)c3)cc2C(F)(F)F)CC1; assay = LC-MS/MS; test system = C57BL/6 mouse, plasma; conditions = intraperitoneal, 30 mg/kg single dose, 24 h; endpoint = mean plasma concentration; value = 12 ng/mL
Structure (SMILES) = COc1cc(C(=O)N2CCC3(CC2)CC(=O)c2c(cnn2C(C)C)C3)cc(-c2ccc(C(=O)O)cc2)n1; assay = item: direct LDL cholesterol; test system = human, fasting serum; conditions = 3 mg every 12 h, day 13, adjusted geometric mean; how to read = baseline: baseline and placebo; endpoint = placebo-adjusted change from baseline; value = 6.2%
Structure (SMILES) = Cc1ccc([C@@H]2O[C@H](CO)[C@@H](O)[C@H](O)[C@H]2O)cc1Cc1ccc(-c2ccc(F)cc2)s1; assay = item: inorganic phosphorus; test system = Japanese type 2 diabetes patients; conditions = 25 mg, day 1, 24 h urine collection; how to read = baseline: baseline; endpoint = urinary phosphate excretion change; value = -228 mg
Structure (SMILES) = Cn1cc(-c2ccc(-c3cncc(Cl)c3N3CCC4(CCNC4=O)CC3)cc2)cn1; tested on = COLO 205; assay = gene expression, microarray, item: ISG20 mRNA; conditions = concentration not given, 2 h; how to read = baseline: untreated cells; endpoint = log2 fold change; value = 3.33
Structure (SMILES) = O=C(Nc1nc2cccc(-c3ccc(CN4CCS(=O)(=O)CC4)cc3)n2n1)C1CC1; assay = item: non-infective cystitis; test system = rheumatoid arthritis patients; conditions = oral, 300 mg once daily, 4 weeks, any relatedness; endpoint = treatment-emergent adverse events; value = 5%
Structure (SMILES) = O=S(=O)(Nc1ccc(OC2CCOC2)nc1)c1cccc(Cl)c1O (stereo not shown); assay = colloidal aggregate formation, dynamic light scattering; test system = 50 mM potassium phosphate buffer; conditions = 200 µM, pH 7.0, 1% DMSO; how to read = higher = more aggregation; endpoint = DLS scattered light intensity; value = 896000 counts/s
Structure (SMILES) = CCc1cc(C(=O)NC)c2nccc(N3CCc4c(cc(Cn5ccnc5)cc4-c4cn(C)nc4C(F)(F)F)C3=O)c2c1; test system = Sprague Dawley rats; conditions = oral, 100 mg/kg twice daily, 7 days; endpoint = blood HGB; value = 132 ± 7.57 g/L

Some of these lines once more:
Structure (SMILES) = CCCCNC(=O)NS(=O)(=O)c1cccs1; assay = haemolysis; test system = sheep erythrocytes; conditions = 1 h, pH 7.5; endpoint = HC50; value = > 128 µg/mL
Structure (SMILES) = CNC(=O)c1ccc(-c2cnc3ncc(Cc4ccc5ncccc5c4)n3n2)cc1F; test system = human mild hepatic impairment NCI; conditions = oral, 200 mg single dose, mean; endpoint = AUC(0-inf); value = 7240 ng·h/mL
Structure (SMILES) = NC1(C(=O)N[C@@H](CCO)c2ccc(Cl)cc2)CCN(c2nc[nH]c3nccc2-3)CC1; test system = metastatic CRPC patients; conditions = 320 mg b.i.d., grade 3 to 4, treatment-related, with: enzalutamide 160 mg daily; endpoint = incidence of Fatigue; value = 0%
Structure (SMILES) = O=C(CCCN1CC=C(n2c(=O)[nH]c3ccccc32)CC1)c1ccc(F)cc1; test system = male Hartley guinea pig, anaesthetized; conditions = intravenous infusion, 0.03 mg/kg, 10 min infusion, post-infusion; endpoint = QTc interval; value = 315 ± 0.6 ms
Structure (SMILES) = COc1c(N2C[C@@H]3CCCN[C@@H]3C2)c(F)cc2c(=O)c(C(=O)O)cn(C3CC3)c12; test system = male Hartley guinea pig, anaesthetized; conditions = intravenous infusion, 10 mg/kg, 10 min infusion, post-infusion; endpoint = QTc interval; value = 358 ± 1.3 ms
